{"data": "Measured values gathered from unrelated publications", "note": "Parts stem from different laboratories: compare values within a part only."}
{"data": "Set 1", "Molecule": "PhoQ, residues 284 288 289 292 302 303 GNNTDL", "method": "Sort-seq", "measured": "YFP reporter", "matrix": "E. coli", "setting": "PhoQ-PhoP variant library", "added": "10 µM Mg2+", "relative to": "high Mg2+ state", "direction": "higher = stronger signaling"}
{"target": "PhoP, residues 12 14 15 18 19 LHTVL (Escherichia coli, UniProt P23836)", "fold induction": 8.14}
{"target": "PhoP, residues 12 14 15 18 19 NQCAL (Escherichia coli, UniProt P23836)", "fold induction": 3.75}
{"target": "PhoP, residues 12 14 15 18 19 TQAML (Escherichia coli, UniProt P23836)", "fold induction": 3.13}
{"data": "Set 2", "target": "Prothrombin, mature alpha-thrombin (F2, Homo sapiens, UniProt P00734)", "method": "aptamer microarray, sandwich", "form": "DNA with 2'F-ANA", "matrix": "in vitro", "concentration": "200 nM", "setting": "whole 15-mer aptamer, many near background", "added": "Cy3 exosite-II aptamer, 400 nM", "direction": "higher = stronger binding", "oligonucleotide": "GGTTGGTGTGGTTGG"}
{"Modification": "2'F-ANA at 1 2 3 6 7 11 13 14", "mean fluorescence intensity": "67.4 a.u."}
{"Modification": "2'F-ANA at 1 3 5 7 10 11 12 14 15", "mean fluorescence intensity": "51.6 a.u."}
{"Modification": "2'F-ANA at 3 7 11 12 13 14", "mean fluorescence intensity": "651 a.u."}
{"Modification": "2'F-ANA at 3 4 6 7 10 13 15", "mean fluorescence intensity": "223 a.u."}
{"Modification": "2'F-ANA at 3 4 5 9 10 12 14 15", "mean fluorescence intensity": "49.2 a.u."}
{"Modification": "2'F-ANA at 2 3 5 6 7 9 11 13 14", "mean fluorescence intensity": "98.5 a.u."}
{"data": "Set 3", "target": "Histone acetyltransferase KAT6A, both winged helices, GST fusion (KAT6A, Homo sapiens, UniProt Q92794, residues 1-181)", "method": "protein binding microarray", "form": "double-stranded DNA, one strand shown", "matrix": "in vitro", "concentration": "not given", "setting": "8-mer, flanks averaged, mean of 2 arrays, mostly near background", "relative to": "not given", "direction": "higher = stronger binding", "Construct (chain)": "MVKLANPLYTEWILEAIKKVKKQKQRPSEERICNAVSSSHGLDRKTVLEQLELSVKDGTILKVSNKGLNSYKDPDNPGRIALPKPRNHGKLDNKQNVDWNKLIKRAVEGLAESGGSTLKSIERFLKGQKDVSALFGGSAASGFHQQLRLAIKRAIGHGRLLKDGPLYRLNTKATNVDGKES"}
{"Oligonucleotide": "GGGTCCAA", "E-score": -0.144}
{"Oligonucleotide": "CCCCTGCA", "E-score": -0.14}
{"Oligonucleotide": "ACGAGTGA", "E-score": -0.0798}
{"Oligonucleotide": "GCTTCCCA", "E-score": 0.104}
{"Oligonucleotide": "AGTCGTGC", "E-score": -0.0801}
{"Oligonucleotide": "GAGCCCGA", "E-score": -0.0109}
{"Oligonucleotide": "CGCTCTCA", "E-score": 0.126}
{"data": "Set 4", "target": "Ras GTPase-activating protein-binding protein 1, full length (G3BP1, Homo sapiens, UniProt Q13283)", "method": "RNA Bind-n-Seq", "form": "RNA", "matrix": "in vitro", "concentration": "200 nM", "setting": "whole 134-nt RNA, ends assumed", "added": "150 mM LiCl", "relative to": "input library", "direction": "higher = stronger binding", "each molecule": "7-deaza-guanosine replaces G", "UniProt Q13283, sequence (whole entry, looked up)": "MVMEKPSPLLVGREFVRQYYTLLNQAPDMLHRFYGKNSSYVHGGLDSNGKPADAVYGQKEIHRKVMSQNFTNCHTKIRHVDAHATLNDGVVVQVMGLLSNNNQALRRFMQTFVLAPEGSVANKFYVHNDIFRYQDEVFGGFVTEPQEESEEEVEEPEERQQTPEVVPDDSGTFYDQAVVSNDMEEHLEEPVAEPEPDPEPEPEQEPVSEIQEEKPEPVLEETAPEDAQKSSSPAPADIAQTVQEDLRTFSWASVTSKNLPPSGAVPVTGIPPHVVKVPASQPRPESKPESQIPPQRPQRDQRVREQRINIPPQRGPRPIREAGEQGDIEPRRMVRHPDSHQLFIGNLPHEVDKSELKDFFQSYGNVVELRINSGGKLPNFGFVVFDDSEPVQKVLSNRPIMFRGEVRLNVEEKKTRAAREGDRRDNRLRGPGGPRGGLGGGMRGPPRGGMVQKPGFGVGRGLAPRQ"}
{"Oligonucleotide": "GGGAGUUCUACAGUCCGACGAUCAGUCCUGUGCUACACAUCGUAUGUACCGAAUCGGGUUUUUUUGGGAAAAAGGGUGGGAAAGUAUUAUGUUACGCCGUUCGGAUCUGCACUUGGAAUUCUCGGGUGUCAAGG", "log2 enrichment": -1.91}
{"Oligonucleotide": "GGGAGUUCUACAGUCCGACGAUCAGUCCUGUGCUACACAUCGUAUGUACCGAAUCGGUUUUUGGUUUUUGGUUUUUGGGGAAAGUAUUAUGUUACGCCGUUCGGAUCUGCACUUGGAAUUCUCGGGUGUCAAGG", "log2 enrichment": -0.838}
{"Oligonucleotide": "GGGAGUUCUACAGUCCGACGAUCACCAUGCAGGUGGGCAUCUUUGGGAAGUGGGGCAAGGGGGGGAUAGGGAGGGGGGUAACACUUUGGGAACAGGUGAAACCAGGUCGUUUCUGGAAUUCUCGGGUGUCAAGG", "log2 enrichment": 0.161}
{"Oligonucleotide": "GGGAGUUCUACAGUCCGACGAUCCUGUGCUACACAUCGUAUGUACCGAAUCGGAAAAAAAGGGAAAAAAAGGGGAAAAAAAGGGGAAAGUAUUAUGUUACGCCGUUCGGAUCUUGGAAUUCUCGGGUGUCAAGG", "log2 enrichment": 0.116}
{"note": "For quick reference, copied from above (set 3):"}
{"Oligonucleotide": "ACGAGTGA", "E-score": -0.0798}
{"Oligonucleotide": "GCTTCCCA", "E-score": 0.104}
{"Oligonucleotide": "AGTCGTGC", "E-score": -0.0801}
